Measurements pooled from the literature.
Lines come from different studies, so protocols differ.
UCHL1: Ubiquitin carboxyl-terminal hydrolase isozyme L1 (UCHL1, Homo sapiens, UniProt P09936)
UniProt P09936, sequence (whole entry, looked up): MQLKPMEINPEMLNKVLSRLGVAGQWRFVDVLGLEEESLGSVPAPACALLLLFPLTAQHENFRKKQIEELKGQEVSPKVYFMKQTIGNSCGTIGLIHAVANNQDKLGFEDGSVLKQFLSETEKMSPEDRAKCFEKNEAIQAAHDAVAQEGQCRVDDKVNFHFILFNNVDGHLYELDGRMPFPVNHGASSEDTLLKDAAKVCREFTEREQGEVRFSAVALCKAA

`CC=CC1CCC(C2CCC(CCC)CC2)CC1` (stereo not drawn) — result for “mean serum concentration”: 1.01 ng/mL (human mother-newborn pairs, female fetuses, cord serum).
The labelling of `Clc1ccc(Nc2nc(Cl)nc(NC3CCCCC3)n2)cc1` is reported as 10.4% (UCHL1; covalent, intact protein LC-MS; 12.5 µM).
For `Cc1ccc(Sc2ccccc2N2CCNCC2)c(C)c1`, the mean half-life was 68.1 h (healthy male humans fed, plasma; oral, 10 mg single, high-fat breakfast).
`Cn1cc(-c2cn3nccc3c(-c3cnn([C@]4(CC#N)C[C@@H](C#N)C4)c3)n2)cn1`: “mean residence time” 21.2 h (healthy humans fasted, plasma; 100 mg single dose, geometric mean).
`C=CC(=O)N(C)CCOc1c(N)ncnc1-c1cc(F)cc(NC(=O)c2ccc(C3CC3)cc2F)c1C` — result for “mean residence time”: 5.8 h (human, whole blood; oral, 600 mg, single ascending dose).
For `CCNCCCNC/C=C\CNCCCNCC`, “mean residence time” read 1.15 h (LC-MS/MS; human cancer patients, plasma; intravenous infusion 60 min, 150 mg, median, cycle 1).
`CCc1ccc(-c2ccc(-c3cc(F)c(F)c(F)c3)c(F)c2)cc1`: “mean serum concentration” 0.49 ng/mL (human mother-newborn pairs, cord serum).
`Cc1ccc(O)c(-n2nc3ccccc3n2)c1`: “mean daily dermal uptake” 878 ng/kg body weight/day (exposure assessment; human, age 21-60 years; spray sunscreen).
For `CS(=O)(=O)N1CCc2cc(C(=O)CCl)ccc21`, the labelling was 54.9% (UCHL1; covalent, intact protein LC-MS; 12.5 µM).
For `N#Cc1ccc2c(c1)[C@H]1CCCN(C(=O)c3ccc4[nH]cnc4c3)[C@H]1C2`, “mean ACTH level” read 5.7 pmol/L (human; 240 mg, end of trial).
Under “mean arterial pressure”, `C[C@@H](O)CCOC(=O)C[C@@H](C)O` is recorded as 84 mmHg (human; oral drink, dose not given, 240 min post dose, mean).
`CCCCc1ccc(C#Cc2ccc(OCC)cc2)cc1` — result for “mean serum concentration”: 0.35 ng/mL (human mother-newborn pairs, female fetuses, cord serum).

A few entries again:
For `Cc1ccc(Sc2ccccc2N2CCNCC2)c(C)c1`, the mean half-life was 68.1 h (healthy male humans fed, plasma; oral, 10 mg single, high-fat breakfast).
